# Results of several laboratories.
# Each numbered part is a random draw from the data of one study; scales do not carry over between parts. Several values in a cell are separate wells, animals, samples, runs or records.
# Sequence of UniProt Q8NG66 (whole entry, looked up): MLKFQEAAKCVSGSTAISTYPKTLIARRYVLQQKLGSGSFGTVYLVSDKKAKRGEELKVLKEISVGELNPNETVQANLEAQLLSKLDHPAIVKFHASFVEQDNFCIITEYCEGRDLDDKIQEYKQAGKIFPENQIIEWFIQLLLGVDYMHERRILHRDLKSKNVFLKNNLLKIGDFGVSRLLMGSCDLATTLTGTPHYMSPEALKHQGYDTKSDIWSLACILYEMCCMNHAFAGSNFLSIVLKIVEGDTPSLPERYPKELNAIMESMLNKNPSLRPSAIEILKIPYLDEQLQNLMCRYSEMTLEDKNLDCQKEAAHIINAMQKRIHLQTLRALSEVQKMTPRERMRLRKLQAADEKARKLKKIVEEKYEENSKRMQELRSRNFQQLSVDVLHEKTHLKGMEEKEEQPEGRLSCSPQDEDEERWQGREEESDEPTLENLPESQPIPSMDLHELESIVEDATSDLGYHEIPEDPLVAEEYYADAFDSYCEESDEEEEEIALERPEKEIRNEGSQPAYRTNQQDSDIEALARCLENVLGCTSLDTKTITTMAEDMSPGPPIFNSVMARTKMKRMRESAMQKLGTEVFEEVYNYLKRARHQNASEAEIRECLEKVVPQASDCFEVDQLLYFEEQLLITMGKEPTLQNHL
# Sequence of UniProt P10721 (whole entry, unmodified, looked up): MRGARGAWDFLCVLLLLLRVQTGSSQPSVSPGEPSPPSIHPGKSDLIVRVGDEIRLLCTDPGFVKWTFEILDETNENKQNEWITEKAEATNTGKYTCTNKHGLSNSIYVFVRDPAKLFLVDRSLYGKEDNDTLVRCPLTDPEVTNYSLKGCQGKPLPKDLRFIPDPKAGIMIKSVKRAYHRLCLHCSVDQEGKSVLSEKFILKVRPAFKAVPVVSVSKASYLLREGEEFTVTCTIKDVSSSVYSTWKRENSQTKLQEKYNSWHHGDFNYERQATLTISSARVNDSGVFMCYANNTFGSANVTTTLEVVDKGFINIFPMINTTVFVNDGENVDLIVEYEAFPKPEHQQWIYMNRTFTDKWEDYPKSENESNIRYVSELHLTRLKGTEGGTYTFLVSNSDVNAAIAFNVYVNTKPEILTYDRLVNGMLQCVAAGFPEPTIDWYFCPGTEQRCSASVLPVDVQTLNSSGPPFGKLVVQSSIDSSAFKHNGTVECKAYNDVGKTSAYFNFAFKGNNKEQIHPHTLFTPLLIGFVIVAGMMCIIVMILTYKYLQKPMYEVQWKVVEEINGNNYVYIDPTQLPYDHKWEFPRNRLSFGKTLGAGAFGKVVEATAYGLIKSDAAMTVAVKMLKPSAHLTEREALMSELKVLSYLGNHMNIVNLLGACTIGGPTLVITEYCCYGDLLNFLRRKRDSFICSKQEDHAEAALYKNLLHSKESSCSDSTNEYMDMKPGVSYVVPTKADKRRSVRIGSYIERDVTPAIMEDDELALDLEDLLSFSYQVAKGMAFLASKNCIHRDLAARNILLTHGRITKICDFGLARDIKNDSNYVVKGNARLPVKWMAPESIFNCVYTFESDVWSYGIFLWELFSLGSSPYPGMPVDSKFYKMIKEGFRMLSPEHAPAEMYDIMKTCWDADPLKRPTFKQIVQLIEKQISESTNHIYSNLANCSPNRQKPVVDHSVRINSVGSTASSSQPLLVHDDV
# Sequence of UniProt Q8N752 (whole entry, looked up): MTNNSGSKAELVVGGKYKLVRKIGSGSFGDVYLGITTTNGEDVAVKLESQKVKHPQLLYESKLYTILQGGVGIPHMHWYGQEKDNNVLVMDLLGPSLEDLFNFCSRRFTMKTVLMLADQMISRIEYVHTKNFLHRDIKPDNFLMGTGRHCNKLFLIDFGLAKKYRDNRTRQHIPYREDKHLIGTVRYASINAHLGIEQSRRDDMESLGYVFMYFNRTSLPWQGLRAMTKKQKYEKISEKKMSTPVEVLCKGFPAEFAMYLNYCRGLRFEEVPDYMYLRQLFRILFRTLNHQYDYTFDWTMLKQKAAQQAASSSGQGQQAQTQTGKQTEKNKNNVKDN
# Sequence of UniProt O75914 (whole entry, looked up): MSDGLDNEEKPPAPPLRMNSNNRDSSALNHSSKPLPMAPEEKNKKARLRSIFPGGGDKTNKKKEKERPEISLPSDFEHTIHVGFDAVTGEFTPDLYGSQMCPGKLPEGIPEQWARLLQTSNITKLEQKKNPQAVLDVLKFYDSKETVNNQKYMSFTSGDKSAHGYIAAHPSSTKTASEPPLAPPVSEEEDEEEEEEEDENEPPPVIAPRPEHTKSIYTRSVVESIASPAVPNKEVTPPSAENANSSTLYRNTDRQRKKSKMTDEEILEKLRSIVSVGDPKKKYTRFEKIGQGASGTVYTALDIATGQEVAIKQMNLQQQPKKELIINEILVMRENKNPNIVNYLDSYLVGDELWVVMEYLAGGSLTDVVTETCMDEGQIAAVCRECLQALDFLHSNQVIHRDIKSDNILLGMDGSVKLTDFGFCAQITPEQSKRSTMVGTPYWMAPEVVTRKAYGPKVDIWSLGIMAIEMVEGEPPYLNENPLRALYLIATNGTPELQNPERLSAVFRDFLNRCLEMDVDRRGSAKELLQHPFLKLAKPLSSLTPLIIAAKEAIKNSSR

# Block 1
# Structure (SMILES): O=C(Nc1cnn(-c2csc(C(=O)NC3COC3)c2)c1)Nc1c(F)cccc1Cl
# Tested at: 5 µM
target,test,how to read,remaining activity [%]
"Casein kinase I isoform alpha-like (CSNK1A1L, Homo sapiens, UniProt Q8N752)",enzyme activity,reference: untreated control,80.9
"Ephrin type-A receptor 2 (EPHA2, Homo sapiens, UniProt P29317)",enzyme activity,reference: untreated control,97.6
"Mitogen-activated protein kinase kinase kinase kinase 1 (MAP4K1, Homo sapiens, UniProt Q92918)",enzyme activity,reference: untreated control,89.1
"STE20/SPS1-related proline-alanine-rich protein kinase (STK39, Homo sapiens, UniProt Q9UEW8)",enzyme activity,reference: untreated control,74.8
"Calcium/calmodulin-dependent protein kinase type II subunit beta (CAMK2B, Homo sapiens, UniProt Q13554)",enzyme activity,reference: untreated control,95.7
"Ribosomal protein S6 kinase alpha-2 (RPS6KA2, Homo sapiens, UniProt Q15349)",enzyme activity,reference: untreated control,89.4
"Tyrosine-protein kinase Lyn, isoform B (LYN, Homo sapiens, UniProt P07948)","kinase activity, kinase panel profiling",,82.8
"Serine/threonine-protein kinase PAK 5 (PAK5, Homo sapiens, UniProt Q9P286)",enzyme activity,reference: untreated control,92.8
"Serine/threonine-protein kinase MRCK alpha (CDC42BPA, Homo sapiens, UniProt Q5VT25)",enzyme activity,reference: untreated control,97.5
"Serine/threonine-protein kinase 4 (STK4, Homo sapiens, UniProt Q13043)",enzyme activity,reference: untreated control,92.8
"Serine/threonine-protein kinase Nek11 (NEK11, Homo sapiens, UniProt Q8NG66)",enzyme activity,reference: untreated control,88.7

# Block 2
# Structure (SMILES): CCCCN(CCCC)C(=O)CN1C[C@H](c2cc(OC)c3c(c2)OCO3)[C@@H](C(=O)O)[C@@H]1CC(C)(C)CCC
# Method: competition with immobilised ligand
# Tested at: 1 µM
target,test,remaining binding [%]
"Cyclin-dependent kinase-like 1 (CDKL1, Homo sapiens, UniProt Q00532)",cell-free assay,100
"Mitogen-activated protein kinase kinase kinase kinase 5 (MAP4K5, Homo sapiens, UniProt Q9Y4K4)",cell-free assay,100
"Death-associated protein kinase 2 (DAPK2, Homo sapiens, UniProt Q9UIK4)",cell-free assay,100
"Ephrin type-A receptor 3 (EPHA3, Homo sapiens, UniProt P29320)",cell-free assay,100
"Cyclin-dependent kinase 16 (CDK16, Homo sapiens, UniProt Q00536)",cell-free assay,74.8
"Tyrosine-protein kinase TXK (TXK, Homo sapiens, UniProt P42681)",binding,94.3
"Epidermal growth factor receptor (EGFR, Homo sapiens, UniProt P00533)",cell-free assay,95.1
"Tyrosine-protein kinase ABL1, non-phosphorylated (ABL1, Homo sapiens, UniProt P00519, Q252H)",cell-free assay,100
"cAMP-dependent protein kinase catalytic subunit beta (PRKACB, Homo sapiens, UniProt P22694)",cell-free assay,100
"Serine/threonine-protein kinase tousled-like 1 (TLK1, Homo sapiens, UniProt Q9UKI8)",cell-free assay,100
"Mitogen-activated protein kinase kinase kinase 10 (MAP3K10, Homo sapiens, UniProt Q02779)",cell-free assay,97
"Insulin receptor-related protein (INSRR, Homo sapiens, UniProt P14616)",cell-free assay,100
"Tyrosine-protein kinase Srms (SRMS, Homo sapiens, UniProt Q9H3Y6)",cell-free assay,69.6
"Mitogen-activated protein kinase 3 (MAPK3, Homo sapiens, UniProt P27361)",cell-free assay,100
"Mitogen-activated protein kinase 10 (MAPK10, Homo sapiens, UniProt P53779)",cell-free assay,91.1
"Serine/threonine-protein kinase Nek11 (NEK11, Homo sapiens, UniProt Q8NG66)",cell-free assay,85.8
"Mast/stem cell growth factor receptor Kit (KIT, Homo sapiens, UniProt P10721, L576P)",cell-free assay,100
"Mitogen-activated protein kinase kinase kinase 1 (MAP3K1, Homo sapiens, UniProt Q13233)",cell-free assay,100
"Serine/threonine-protein kinase PAK 3 (PAK3, Homo sapiens, UniProt O75914)",cell-free assay,100
"Phosphatidylinositol 4,5-bisphosphate 3-kinase catalytic subunit alpha isoform (PIK3CA, Homo sapiens, UniProt P42336, E545A)",cell-free assay,89.8
"Phosphatidylinositol 5-phosphate 4-kinase type-2 beta (PIP4K2B, Homo sapiens, UniProt P78356)",cell-free assay,100
"Mast/stem cell growth factor receptor Kit (KIT, Homo sapiens, UniProt P10721, T670I/V559D)",cell-free assay,100
"Serine/threonine-protein kinase 32C (STK32C, Homo sapiens, UniProt Q86UX6)",cell-free assay,100

# Block 3
# Cell line: mouse MPNST tumor cells
# Method: high-content nuclear imaging
# Measured: cell number
# Tested at: 10 µM
# Time: 12 h
# Setting: mean of 2 replicates
# Reference: plate mean
# Direction: higher = more cells
Compound,nuclei count
O=C(Nc1ccccc1)N1CCN(c2nc(-c3ccccc3)ns2)CC1,-0.292 z-score
CCN1C(C)(C)CC(Oc2ccc(C(=O)Nc3ccc(NC(=O)Nc4cc(C(C)(C)C)on4)cc3)nc2)CC1(C)C,3.35 z-score
CCN(CC)CCOCCOC(=O)C1(c2ccccc2)CCCC1,0.645 z-score
COc1c(C)cc(NC(=O)c2nn(Cc3ccc(F)cc3)c3c2CN(C(=O)c2ccc[nH]2)C[C@]3(C)C(N)=O)cc1C,3.11 z-score
CC1(C)O[C@@H]2C[C@H]3[C@@H]4CCC5=CC(=O)C=C[C@]5(C)[C@H]4[C@@H](O)C[C@]3(C)[C@]2(C(=O)CO)O1,4.03 z-score
O=C(O)CCN(O)C(=O)CCCCCCCCC1CC1,0.337 z-score
CN(C)CCCN1c2ccccc2Sc2ccc(Cl)cc21,-5.58 z-score
COc1cc2c(cc1OCCCN1CCCC1)N=C(N)C21CCC1,0.89 z-score and 5.38 z-score
O=C(O)c1cc(/N=N/c2ccc(S(=O)(=O)Nc3ccccn3)cc2)ccc1O,1.2 z-score and 1.09 z-score

# Block 4
# Target: DNA polymerase theta, ATPase domain (POLQ, Homo sapiens, UniProt O75417)
# Sequence of UniProt O75417 (whole entry, unmodified, looked up): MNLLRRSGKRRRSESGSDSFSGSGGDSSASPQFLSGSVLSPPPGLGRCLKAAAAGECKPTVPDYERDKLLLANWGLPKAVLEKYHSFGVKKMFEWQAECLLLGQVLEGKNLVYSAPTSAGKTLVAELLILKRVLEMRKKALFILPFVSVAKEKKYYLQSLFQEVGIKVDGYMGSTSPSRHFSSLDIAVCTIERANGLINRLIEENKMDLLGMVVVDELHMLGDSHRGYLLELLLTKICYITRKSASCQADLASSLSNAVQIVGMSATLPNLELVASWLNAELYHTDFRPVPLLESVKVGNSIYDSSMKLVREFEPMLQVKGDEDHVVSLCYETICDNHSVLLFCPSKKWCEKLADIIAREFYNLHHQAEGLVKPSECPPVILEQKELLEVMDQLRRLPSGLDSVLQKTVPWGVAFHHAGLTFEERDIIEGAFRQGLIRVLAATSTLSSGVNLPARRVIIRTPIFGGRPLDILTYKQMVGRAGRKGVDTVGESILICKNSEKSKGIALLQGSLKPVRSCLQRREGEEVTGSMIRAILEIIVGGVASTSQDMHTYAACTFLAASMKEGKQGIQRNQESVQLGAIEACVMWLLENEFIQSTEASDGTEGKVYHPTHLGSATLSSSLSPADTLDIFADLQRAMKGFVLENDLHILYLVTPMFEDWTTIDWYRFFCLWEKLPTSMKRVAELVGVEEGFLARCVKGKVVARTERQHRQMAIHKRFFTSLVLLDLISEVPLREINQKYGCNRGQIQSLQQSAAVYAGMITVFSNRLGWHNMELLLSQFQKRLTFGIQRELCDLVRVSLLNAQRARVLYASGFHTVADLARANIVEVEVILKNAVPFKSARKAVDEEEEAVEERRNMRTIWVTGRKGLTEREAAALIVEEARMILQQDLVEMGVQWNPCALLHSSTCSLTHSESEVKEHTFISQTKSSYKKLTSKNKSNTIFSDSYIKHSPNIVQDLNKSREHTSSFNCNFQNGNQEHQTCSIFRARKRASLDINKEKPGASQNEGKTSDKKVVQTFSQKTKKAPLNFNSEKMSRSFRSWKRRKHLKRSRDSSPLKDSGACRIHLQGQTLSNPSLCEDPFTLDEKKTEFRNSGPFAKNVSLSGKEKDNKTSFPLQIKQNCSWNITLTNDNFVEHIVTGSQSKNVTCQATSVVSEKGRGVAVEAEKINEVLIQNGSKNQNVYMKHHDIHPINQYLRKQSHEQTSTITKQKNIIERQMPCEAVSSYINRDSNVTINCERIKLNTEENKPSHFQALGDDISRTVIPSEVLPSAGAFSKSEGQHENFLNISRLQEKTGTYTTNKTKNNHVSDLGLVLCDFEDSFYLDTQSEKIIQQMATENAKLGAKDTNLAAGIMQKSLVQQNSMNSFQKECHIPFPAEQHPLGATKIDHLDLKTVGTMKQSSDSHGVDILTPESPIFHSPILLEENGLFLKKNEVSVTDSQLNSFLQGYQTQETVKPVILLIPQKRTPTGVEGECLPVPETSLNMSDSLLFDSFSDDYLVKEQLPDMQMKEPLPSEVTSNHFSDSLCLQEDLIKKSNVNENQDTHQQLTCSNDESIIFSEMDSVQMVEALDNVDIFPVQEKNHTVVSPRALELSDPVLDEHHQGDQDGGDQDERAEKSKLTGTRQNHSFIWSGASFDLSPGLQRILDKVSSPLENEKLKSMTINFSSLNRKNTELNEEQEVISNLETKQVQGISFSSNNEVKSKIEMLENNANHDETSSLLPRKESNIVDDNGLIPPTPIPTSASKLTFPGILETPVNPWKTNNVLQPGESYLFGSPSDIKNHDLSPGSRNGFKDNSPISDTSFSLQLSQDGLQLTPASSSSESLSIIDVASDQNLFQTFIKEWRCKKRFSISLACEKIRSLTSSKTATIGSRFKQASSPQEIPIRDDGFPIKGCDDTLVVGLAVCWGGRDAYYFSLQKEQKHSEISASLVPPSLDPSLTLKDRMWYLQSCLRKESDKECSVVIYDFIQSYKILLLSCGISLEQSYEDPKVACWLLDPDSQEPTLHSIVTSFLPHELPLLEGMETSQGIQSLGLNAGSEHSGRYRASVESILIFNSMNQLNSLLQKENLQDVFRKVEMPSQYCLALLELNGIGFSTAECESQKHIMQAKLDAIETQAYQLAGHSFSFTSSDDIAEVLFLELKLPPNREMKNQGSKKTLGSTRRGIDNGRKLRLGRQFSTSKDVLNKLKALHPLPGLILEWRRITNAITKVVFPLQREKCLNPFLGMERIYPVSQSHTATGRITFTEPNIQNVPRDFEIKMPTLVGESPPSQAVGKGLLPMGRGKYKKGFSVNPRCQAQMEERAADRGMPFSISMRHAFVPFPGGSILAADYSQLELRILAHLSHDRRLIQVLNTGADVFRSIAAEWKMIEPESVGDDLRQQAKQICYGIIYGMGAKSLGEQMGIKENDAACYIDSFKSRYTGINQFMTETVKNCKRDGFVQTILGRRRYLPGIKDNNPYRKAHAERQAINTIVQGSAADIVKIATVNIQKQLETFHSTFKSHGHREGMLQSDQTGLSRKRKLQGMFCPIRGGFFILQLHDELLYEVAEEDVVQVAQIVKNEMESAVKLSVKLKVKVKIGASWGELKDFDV
# Observed: enzyme activity
# Action: inhibitor
# Tested at: 77 µM
# Reference: untreated
SMILES,remaining activity
O=C(O)c1cccnc1C(=O)O,103%
OCC(O)CCON=C1C(c2c(O)[nH]c3ccccc23)=Nc2ccccc21 (stereo not shown),108%
OCc1c[nH]c2ccccc12,102%
CC(=O)O[C@]1(C(C)=O)CC[C@H]2[C@@H]3C[C@H](C)C4=CC(=O)C=C[C@]4(C)[C@@]3(F)[C@@H](O)C[C@@]21C,103%
CCCCCCN(CCCCCC)C(=O)Cc1c(-c2ccc(F)cc2)[nH]c2ccccc12,100%
C[C@@H]1CC(=O)NN=C1c1ccc(NN=C(C#N)C#N)cc1,78.6%
C[C@]12C=CC(=O)N[C@@H]1CC[C@@H]1[C@@H]2CC[C@]2(C)[C@@H](C(=O)Nc3cc(C(F)(F)F)ccc3C(F)(F)F)CC[C@@H]12,90.8%
O=C(c1ccccc1)c1ccc(N2CCOCC2)cc1O,98.7%
CO[C@@H]1[C@@H](OC(N)=O)[C@@H](O)[C@H](Oc2ccc3c(O)c(NC(=O)c4ccc(O)c(CC=C(C)C)c4)c(=O)oc3c2C)OC1(C)C,61.9%
CCOc1cc(CC(=O)N[C@@H](CC(C)C)c2ccccc2N2CCCCC2)ccc1C(=O)O,95.7% and 87.4%
O=C(O)c1cc(-c2ccc(F)cc2F)ccc1O,79.6%
Cc1ccc2c(c1)c1c3n2CCNC3CCC1 (stereo not shown),100%

# For quick reference, copied from above (block 2):
target,test,remaining binding [%]
"Serine/threonine-protein kinase tousled-like 1 (TLK1, Homo sapiens, UniProt Q9UKI8)",cell-free assay,100
"Mitogen-activated protein kinase kinase kinase 10 (MAP3K10, Homo sapiens, UniProt Q02779)",cell-free assay,97
"Insulin receptor-related protein (INSRR, Homo sapiens, UniProt P14616)",cell-free assay,100
"Tyrosine-protein kinase Srms (SRMS, Homo sapiens, UniProt Q9H3Y6)",cell-free assay,69.6
"Mitogen-activated protein kinase 3 (MAPK3, Homo sapiens, UniProt P27361)",cell-free assay,100
"Mitogen-activated protein kinase 10 (MAPK10, Homo sapiens, UniProt P53779)",cell-free assay,91.1
